{"data": "Experimental data from different studies", "note": "A part holds a random share of what one study measured."}
{"data": "Sample 1", "target": "Fragile X messenger ribonucleoprotein 1, C-terminal low-complexity region (Fmr1, Mus musculus, UniProt P35922)", "technique": "RNA Bind-n-Seq", "molecule type": "RNA", "matrix": "in vitro", "concentration": "200 nM", "setting": "whole 134-nt RNA, ends assumed", "together with": "150 mM LiCl", "relative to": "input library", "reading": "higher = stronger binding", "each molecule": "7-deaza-guanosine replaces G"}
{"Sequence": "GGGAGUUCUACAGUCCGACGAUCUAUGCCACGCCCUUUGAGGACUCGAAGAUCAUGGUCUCUGACUUUGGACUCUCCAAAAUCCAGGCUGGGAACAUGCUAGGCACCGCCUGUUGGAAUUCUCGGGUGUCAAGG", "log2 enrichment": -0.24}
{"Sequence": "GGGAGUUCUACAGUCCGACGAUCUUGUUUGAAACAGCAACGCUUCGGUCAGGGUAUCUUUUACCAGACACUAAAGCAUAUGGAGAUAGAAUAGAAAGAAUGCUUCGCCUCAGUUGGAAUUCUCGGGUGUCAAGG", "log2 enrichment": -2.2}
{"Sequence": "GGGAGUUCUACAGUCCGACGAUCUUGCUGUCACCCGCUGCCUGUCUGCAGGAUCCCGGAUUCCGUAUCAGGGGACCGAAAUUAGUCGGAAAAUAGGAAGCAGGUGCUCGCUUGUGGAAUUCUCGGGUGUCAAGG", "log2 enrichment": -1.46}
{"Sequence": "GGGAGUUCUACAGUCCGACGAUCUGGCCCUGGUGGCAUGCGGGGAGGAAGAGGUGGCCUCAUUGAUCGUGGUGGUCCCGGUGGAAUGUUCAGAGGUGGCCGUGGUGGAGACAGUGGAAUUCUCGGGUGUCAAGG", "log2 enrichment": 0.13}
{"Sequence": "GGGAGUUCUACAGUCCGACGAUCUCCUGUGCUACACAUCGUAUGUACCGAAUCGGCCCCCCGGGGCCCCCCGGGGCCCCCCGGAAAGUAUUAUGUUACGCCGUUCGGAUCUGCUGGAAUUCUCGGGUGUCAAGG", "log2 enrichment": -3.08}
{"Sequence": "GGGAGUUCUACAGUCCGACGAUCCAAGUCCUGUGCUACACAUCGUAUGUACCGAAUCGGGUUUUUGGGUGGGAAAGGGAAAGUAUUAUGUUACGCCGUUCGGAUCUGCACUUCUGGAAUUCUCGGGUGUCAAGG", "log2 enrichment": -0.875}
{"Sequence": "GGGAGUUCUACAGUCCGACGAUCCCUGUGCUACACAUCGUAUGUACCGAAUCGGAAAAAAGGGAAAAAAGGGGAAAAAAGGGGAAAGUAUUAUGUUACGCCGUUCGGAUCUGCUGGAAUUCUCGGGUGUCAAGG", "log2 enrichment": 0.0477}
{"Sequence": "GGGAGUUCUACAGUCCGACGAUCUGGCCCUGGUGGCAUGCGGGGAGGAACAGGUGGCCUCAUGGAUCGUGGUGGUCCCGGUGGAAUGUUCAGAGGUGGCCGUGGUGGAGACAGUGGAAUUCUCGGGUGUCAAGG", "log2 enrichment": -0.202}
{"Sequence": "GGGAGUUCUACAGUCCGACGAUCUCAAGUCCUGUGCUACACAUCGUAUGUACCGAAUCGGGUUUGGUUUGGGUUUGGAAAGUAUUAUGUUACGCCGUUCGGAUCUGCACUUCCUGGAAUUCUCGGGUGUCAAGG", "log2 enrichment": -1.37}
{"Sequence": "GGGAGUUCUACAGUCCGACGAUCUGGCCCUGGUGGCAUGCGGGGAGGAAGAGGUGGCCUCAUGGAUCGUGGUGGUCCCGGUGGAAUGUUCAGAGGUGGGCGUGGUGGAGACAGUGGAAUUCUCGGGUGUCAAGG", "log2 enrichment": -0.142}
{"Sequence": "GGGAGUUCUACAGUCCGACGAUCAAGUCCUGUGCUACACAUCGUAUGUACCGAAUCGGUUUUGGGGUUUUGGGGUUUUGGAAAGUAUUAUGUUACGCCGUUCGGAUCUGCACUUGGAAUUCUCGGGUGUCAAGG", "log2 enrichment": -1.02}
{"data": "Sample 2", "target": "Prothrombin, mature alpha-thrombin (F2, Homo sapiens, UniProt P00734)", "technique": "aptamer microarray, sandwich", "molecule type": "DNA with 2'F-ANA", "matrix": "in vitro", "concentration": "200 nM", "setting": "whole 15-mer aptamer, many near background", "together with": "Cy3 exosite-II aptamer, 400 nM", "reading": "higher = stronger binding", "sequence": "GGTTGGTGTGGTTGG"}
{"Modification": "2'F-ANA at 1 3 4 5 6 7 8 9 10 12 13", "mean fluorescence intensity [a.u.]": 63.8}
{"Modification": "2'F-ANA at 1 2 5 7 8 10 11 14 15", "mean fluorescence intensity [a.u.]": 61.5}
{"Modification": "2'F-ANA at 2 10 11 13", "mean fluorescence intensity [a.u.]": 165}
{"Modification": "2'F-ANA at 1 2 5 7 9 10 12 15", "mean fluorescence intensity [a.u.]": 49}
{"Modification": "2'F-ANA at 3 4 7 8 9 10 11 13 14", "mean fluorescence intensity [a.u.]": 219}
{"Modification": "2'F-ANA at 2 4 7 8 14 15", "mean fluorescence intensity [a.u.]": 136}
{"Modification": "2'F-ANA at 2 4 6 7 10 12 14 15", "mean fluorescence intensity [a.u.]": 70.4}
{"Modification": "2'F-ANA at 1 2 3 7 11 12 14 15", "mean fluorescence intensity [a.u.]": 90.8}
{"Modification": "2'F-ANA at 1 4 7 8 9 11 12 13", "mean fluorescence intensity [a.u.]": 169}
{"Modification": "2'F-ANA at 2 3 4 7 9 11 13 15", "mean fluorescence intensity [a.u.]": 392}
{"Modification": "2'F-ANA at 3 5 10 11 12 13 14", "mean fluorescence intensity [a.u.]": 131}
{"Modification": "2'F-ANA at 3 4 6 7 8 9 11 13 15", "mean fluorescence intensity [a.u.]": 400}
{"Modification": "2'F-ANA at 1 4 6 8 14", "mean fluorescence intensity [a.u.]": 54.3}
{"Modification": "2'F-ANA at 2 3 6 7 9 10 13", "mean fluorescence intensity [a.u.]": 290}
{"Modification": "2'F-ANA at 1 2 3 8 9 10 11 13 14", "mean fluorescence intensity [a.u.]": 238}
{"Modification": "2'F-ANA at 1 2 4 5 12 13 14 15", "mean fluorescence intensity [a.u.]": 45}
{"Modification": "2'F-ANA at 2 3 7 8 9 10 11 12 14 15", "mean fluorescence intensity [a.u.]": 238}
{"Modification": "2'F-ANA at 1 3 4 5 6 8 12 15", "mean fluorescence intensity [a.u.]": 113}
{"data": "Sample 3", "target": "Interferon regulatory factor 7, full length, phosphomimetic (IRF7, Homo sapiens, UniProt Q92985, residues 1-503, S101K/S471D/S472D/S475D/S476D/S477D/S483D/S484D/S487D)", "technique": "protein-binding microarray", "molecule type": "double-stranded DNA, one strand shown", "matrix": "in vitro", "concentration": "250 nM", "setting": "60-bp whole probe", "together with": "salmon DNA 0.4 mg/ml", "relative to": "random background probes", "reading": "higher = stronger binding", "shared flanks, not repeated": "GCCTAGCAC … GTCTTGATTCGCTTGACGCTGCTG", "sequence of UniProt Q92985 (whole entry, unmodified, looked up)": "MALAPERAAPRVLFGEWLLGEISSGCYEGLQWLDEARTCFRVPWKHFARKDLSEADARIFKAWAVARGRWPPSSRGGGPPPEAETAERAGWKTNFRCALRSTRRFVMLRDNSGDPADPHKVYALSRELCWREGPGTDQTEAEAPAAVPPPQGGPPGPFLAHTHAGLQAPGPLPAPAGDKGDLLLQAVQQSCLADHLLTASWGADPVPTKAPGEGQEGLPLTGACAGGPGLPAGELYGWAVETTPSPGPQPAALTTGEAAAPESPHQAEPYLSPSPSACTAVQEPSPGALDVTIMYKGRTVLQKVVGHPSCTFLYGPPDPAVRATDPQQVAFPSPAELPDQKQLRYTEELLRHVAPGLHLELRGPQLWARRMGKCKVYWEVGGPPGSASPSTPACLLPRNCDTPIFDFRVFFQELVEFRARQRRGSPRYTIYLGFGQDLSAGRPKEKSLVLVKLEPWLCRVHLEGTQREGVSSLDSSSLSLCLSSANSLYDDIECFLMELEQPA"}
{"Sequence": "AGCAGGGGCGCAGGTAGGTGGTGCTAG", "log fluorescence [z-score]": -1.22}
{"Sequence": "GACGGGTTCCTTTCCCTGACGTGCTAG", "log fluorescence [z-score]": 1.24}
{"Sequence": "GACGATTCCAGTTTCGAGCCGTGCTAG", "log fluorescence [z-score]": 2.49}
{"Sequence": "TTAGATTTCGGGTGTCGATTAGTGCTA", "log fluorescence [z-score]": 0.576}
{"Sequence": "TCATTTTTTTTTTCATCATTGTGCTAG", "log fluorescence [z-score]": 1.05}
{"Sequence": "TTAGATTCCAGTTTCGATTGGTGCTAG", "log fluorescence [z-score]": 10.8}
{"Sequence": "GACGATCTCAGTTTCGATACGTGCTAG", "log fluorescence [z-score]": 6.37}
{"Sequence": "GACGATCTAAGACTGGAGACGTGCTAG", "log fluorescence [z-score]": -0.248}
{"Sequence": "CCTATTATATATATCATAAGGTGCTAG", "log fluorescence [z-score]": 1.32}
{"Sequence": "TTCACTATTGCTTCCTCTTTGTGCTAG", "log fluorescence [z-score]": 0.43}
{"Sequence": "GACCAACTGAGTCTCGAGACGTGCTAG", "log fluorescence [z-score]": 0.6}
{"Sequence": "TTAGGACTGCTTCACCTTTAGTGCTAG", "log fluorescence [z-score]": 0.492}
{"Sequence": "GACGATTTCGGGACTGGAAACGTGCTA", "log fluorescence [z-score]": 0.395}
{"Sequence": "TCACAAGTCTTGTTTTACACTGTGCTA", "log fluorescence [z-score]": 1.17}
{"Sequence": "GACGGTTGCGGGTATCGGGACGTGCTA", "log fluorescence [z-score]": -0.333}
{"Sequence": "CATGAACTGTTTCTTGAAAAGTGCTAG", "log fluorescence [z-score]": 0.356}
{"Sequence": "GACGATATCAGTAACGAGACGTGCTAG", "log fluorescence [z-score]": 0.0641}
{"Sequence": "TTCGGTTTCGGTTCCGGTTAGTGCTAG", "log fluorescence [z-score]": 13.1}
{"Sequence": "TCATATATATTTATGTAACTGTGCTAG", "log fluorescence [z-score]": 0.452}
{"Sequence": "TTAGATATCAGACTGAATTAGTGCTAG", "log fluorescence [z-score]": -0.0161}
{"Sequence": "GTTTGTATATATTTTAACCCGTGCTAG", "log fluorescence [z-score]": 0.402}
{"Sequence": "CACGGTCTCGGTTTCGGGACGTGCTAG", "log fluorescence [z-score]": 7.97}
{"Sequence": "GACGGTTTCCTTTCCCTGTCGTGCTAG", "log fluorescence [z-score]": 6.02}
{"Sequence": "TTAGAACTGGGGACTGGATTAGTGCTA", "log fluorescence [z-score]": -0.255}
{"Sequence": "GACGGATTCGGTATCGGGACGTGCTAG", "log fluorescence [z-score]": 2.27}
{"data": "Sample 4", "target": "Histone acetyltransferase KAT6A, winged helix 1, GST fusion (KAT6A, Homo sapiens, UniProt Q92794, residues 1-85)", "technique": "protein binding microarray", "molecule type": "double-stranded DNA, one strand shown", "matrix": "in vitro", "concentration": "not given", "setting": "8-mer, flanks averaged, mean of 2 arrays, mostly near background", "relative to": "not given", "reading": "higher = stronger binding", "Target sequence (chain)": "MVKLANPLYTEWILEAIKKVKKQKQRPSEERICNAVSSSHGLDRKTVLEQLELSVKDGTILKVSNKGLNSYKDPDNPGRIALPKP"}
{"Sequence": "ACCAAACC", "E-score": 0.00568}
{"Sequence": "AAGACGAG", "E-score": -0.122}
{"Sequence": "CAGCAGAA", "E-score": -0.027}
{"Sequence": "CTAGGGTC", "E-score": -0.169}
{"Sequence": "CATTAAAA", "E-score": -0.0506}
{"Sequence": "AGGCGTTC", "E-score": -0.00564}
{"Sequence": "AAATCCTT", "E-score": -0.19}
{"Sequence": "CAATGATA", "E-score": -0.0376}
{"Sequence": "CCAAGAAA", "E-score": -0.287}
{"Sequence": "GAAATATA", "E-score": 0.0181}
{"Sequence": "TAGAGATA", "E-score": -0.245}
{"Sequence": "CTCGGGAA", "E-score": 0.117}
{"Sequence": "ACCGATAC", "E-score": 0.149}
{"Sequence": "ATCAGATG", "E-score": -0.134}
{"Sequence": "GCACCAGC", "E-score": -0.0104}
{"Sequence": "AGATGCCT", "E-score": -0.214}
{"Sequence": "CGCGATTC", "E-score": 0.33}
{"Sequence": "AATGCGTC", "E-score": 0.164}
{"Sequence": "TTGCGCAA", "E-score": 0.228}
{"Sequence": "ACGCGAAC", "E-score": 0.0584}
{"note": "Excerpt of the above (sample 4):"}
{"Sequence": "AGGCGTTC", "E-score": -0.00564}
{"Sequence": "CAATGATA", "E-score": -0.0376}
{"Sequence": "ACCGATAC", "E-score": 0.149}
{"Sequence": "CTAGGGTC", "E-score": -0.169}
{"Sequence": "AGATGCCT", "E-score": -0.214}
{"Sequence": "CGCGATTC", "E-score": 0.33}
{"Sequence": "GCACCAGC", "E-score": -0.0104}
{"Sequence": "CAGCAGAA", "E-score": -0.027}
{"Sequence": "ACCAAACC", "E-score": 0.00568}
{"Sequence": "CATTAAAA", "E-score": -0.0506}
{"Sequence": "AAATCCTT", "E-score": -0.19}
